Assay results gathered from unrelated publications.
Lines come from different studies, so protocols differ. Several values in a cell are separate wells, animals, samples, runs or records. Numbers after ± are the reported error.
Ephx2: Bifunctional epoxide hydrolase 2 (Ephx2, Mus musculus, UniProt P34914)
Chain of UniProt P34914 (whole entry, looked up): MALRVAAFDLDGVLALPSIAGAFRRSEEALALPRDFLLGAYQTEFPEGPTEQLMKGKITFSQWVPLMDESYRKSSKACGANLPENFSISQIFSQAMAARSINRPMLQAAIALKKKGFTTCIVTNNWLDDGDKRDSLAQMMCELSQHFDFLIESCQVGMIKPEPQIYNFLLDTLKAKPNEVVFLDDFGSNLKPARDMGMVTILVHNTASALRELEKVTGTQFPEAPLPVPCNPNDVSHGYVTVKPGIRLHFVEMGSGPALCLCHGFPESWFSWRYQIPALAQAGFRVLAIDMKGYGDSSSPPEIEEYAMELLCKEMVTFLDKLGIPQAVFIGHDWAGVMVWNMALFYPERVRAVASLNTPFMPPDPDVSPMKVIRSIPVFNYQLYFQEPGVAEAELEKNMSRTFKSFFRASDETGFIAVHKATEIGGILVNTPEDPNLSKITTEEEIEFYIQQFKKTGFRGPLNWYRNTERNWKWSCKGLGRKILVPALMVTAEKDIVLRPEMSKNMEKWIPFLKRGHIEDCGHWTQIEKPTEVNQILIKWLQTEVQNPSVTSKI
EPHX2: Bifunctional epoxide hydrolase 2 (EPHX2, Homo sapiens, UniProt P34913)
Chain of UniProt P34913 (whole entry, looked up): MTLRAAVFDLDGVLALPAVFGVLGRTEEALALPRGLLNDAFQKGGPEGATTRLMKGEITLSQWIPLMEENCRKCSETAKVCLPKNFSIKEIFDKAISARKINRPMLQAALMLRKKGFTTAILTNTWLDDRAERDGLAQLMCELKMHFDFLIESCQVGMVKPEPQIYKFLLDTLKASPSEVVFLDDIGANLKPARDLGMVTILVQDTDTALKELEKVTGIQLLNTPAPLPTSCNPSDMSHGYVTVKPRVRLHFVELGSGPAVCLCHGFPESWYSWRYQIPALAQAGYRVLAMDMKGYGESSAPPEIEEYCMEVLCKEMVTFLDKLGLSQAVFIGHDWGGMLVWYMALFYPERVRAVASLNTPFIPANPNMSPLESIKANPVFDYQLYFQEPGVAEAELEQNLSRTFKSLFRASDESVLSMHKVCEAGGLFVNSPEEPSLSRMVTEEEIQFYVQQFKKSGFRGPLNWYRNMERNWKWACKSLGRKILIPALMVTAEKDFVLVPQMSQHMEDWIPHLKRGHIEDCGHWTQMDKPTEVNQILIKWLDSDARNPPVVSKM
FAAH: Fatty-acid amide hydrolase 1 (FAAH, Homo sapiens, UniProt O00519)
Chain of UniProt O00519 (whole entry, looked up): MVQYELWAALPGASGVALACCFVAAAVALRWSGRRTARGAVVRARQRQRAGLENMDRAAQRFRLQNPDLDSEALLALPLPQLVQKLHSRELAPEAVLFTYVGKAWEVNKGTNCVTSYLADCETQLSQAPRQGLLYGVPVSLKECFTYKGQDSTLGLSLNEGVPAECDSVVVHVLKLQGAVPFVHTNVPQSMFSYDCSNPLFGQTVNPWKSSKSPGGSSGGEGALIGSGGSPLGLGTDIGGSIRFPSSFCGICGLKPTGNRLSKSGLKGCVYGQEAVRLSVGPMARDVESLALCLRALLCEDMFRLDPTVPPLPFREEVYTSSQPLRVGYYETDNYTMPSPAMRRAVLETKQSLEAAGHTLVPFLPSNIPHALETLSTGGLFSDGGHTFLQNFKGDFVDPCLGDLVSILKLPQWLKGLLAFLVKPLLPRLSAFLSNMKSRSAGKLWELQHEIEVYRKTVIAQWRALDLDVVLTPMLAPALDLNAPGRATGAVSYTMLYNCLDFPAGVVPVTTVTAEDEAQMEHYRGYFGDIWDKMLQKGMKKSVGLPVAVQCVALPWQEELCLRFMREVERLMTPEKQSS
CBL SH2 domain: E3 ubiquitin-protein ligase CBL, SH2 domain (CBL, Homo sapiens, UniProt P22681)
Chain of UniProt Q8WTS6 (whole entry, looked up): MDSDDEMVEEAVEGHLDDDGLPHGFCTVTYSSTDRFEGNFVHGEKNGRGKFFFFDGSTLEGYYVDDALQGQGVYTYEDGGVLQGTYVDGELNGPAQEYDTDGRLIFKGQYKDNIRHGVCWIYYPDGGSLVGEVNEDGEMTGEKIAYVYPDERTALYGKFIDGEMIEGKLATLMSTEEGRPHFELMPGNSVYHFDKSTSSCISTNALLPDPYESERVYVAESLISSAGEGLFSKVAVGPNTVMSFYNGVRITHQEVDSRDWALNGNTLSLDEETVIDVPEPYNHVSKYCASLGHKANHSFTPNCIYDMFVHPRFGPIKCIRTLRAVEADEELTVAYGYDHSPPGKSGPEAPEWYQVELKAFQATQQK

SMILES | tested on | test | system | setting | endpoint | value
O=C(O)CCCC[C@@H]1SC[C@@H]2NC(=O)N[C@@H]21 | Histone-lysine N-methyltransferase SETD7 (SETD7, Homo sapiens, UniProt Q8WTS6) | inhibitor |  | apparent, bead displacement artifact | IC50 | 1300 nM and 1300 to 1700 nM
O=C(Nc1ccc(C(F)(F)F)c(F)c1)NC1CCN(c2c(NS(=O)(=O)Cc3ccccc3)c(=O)c2=O)CC1 | Ephx2 |  |  |  | IC50 | 2550 ± 328 nM
O=c1[nH]cnc2c(CN3C[C@H](CO)[C@@H](O)C3)c[nH]c12 | Purine nucleoside phosphorylase (Bacteroides fragilis, UniProt Q5LAA3) |  |  |  | Ki | 2.3 ± 0.02 nM
Cc1ccccc1S(=O)(=O)Nc1c(N2CCC(NC(=O)Nc3ccc(C(F)(F)F)cc3)CC2)c(=O)c1=O | EPHX2 |  |  |  | IC50 | 0.9 ± 0.1 nM
Cc1ccccc1CN1CCC(C(=O)Nc2ccc(-c3cnc4ccccc4c3)cc2)CC1 | FAAH |  |  |  | IC50 | 94.4 nM
CSCC[C@H](NC(=O)[C@@H](NC(=O)[C@H](CCC(=O)O)NC(=O)[C@H](Cc1ccc(OP(=O)(O)O)cc1)NC(=O)[C@H](CC(C)C)NC(=O)[C@@H]1CCCN1C(=O)[C@H](CC(=O)O)NC(=O)[C@@H]1CCCN1C(=O)[C@H](CS)NC(=O)[C@H](Cc1ccc(O)cc1)NC(=O)[C@H](CCC(=O)O)NC(=O)[C@@H]1CCCN1C(=O)[C@H](CCC(N)=O)NC(=O)c1ccc2c(c1)C(=O)OC21c2ccc(N(C)C)cc2Oc2cc(N(C)C)ccc21)C(C)C)C(=O)N[C@@H](CC(C)C)C(=O)N[C@@H](CCCCN)C(=O)N[C@@H](CS)C(=O)N[C@@H](Cc1c[nH]c2ccccc12)C(=O)N[C@@H](CC(=O)O)C(=O)O | CBL SH2 domain |  |  | human protein | Kd | 148 nM
O=C(Nc1ccc(F)c(Cl)c1)NC1CCN(c2c(NS(=O)(=O)Cc3ccccc3)c(=O)c2=O)CC1 | Ephx2 |  |  |  | IC50 | 741 ± 45.2 nM
NCCc1c[nH]c2ccc(O)cc12 | serotonin transporter (Schistosoma mansoni, UniProt Q3I1M7) |  |  |  | EC50 | 342 nM
O=C(Nc1ccc(-c2cnc3ccccc3c2)cc1)C1CCN(Cc2ccc([N+](=O)[O-])cc2)CC1 | FAAH |  |  |  | IC50 | 15.8 nM
C(#Cc1c[nH]c2nccc(-c3ccncc3)c12)c1cccnc1 |  |  | mouse C57BL/6, male | intravenous, 2 mg/kg | AUC(0-inf) | 660 ± 206 ng·h/mL
COc1ccc(NC(=O)NC2CCN(c3c(NS(=O)(=O)c4ccc(C)cc4)c(=O)c3=O)CC2)cc1 | EPHX2 |  |  |  | IC50 | 281 ± 35.4 nM
O=C(Nc1ccc(-c2cnc3ccccc3c2)cc1)C1CCN(CC2CCCCC2)CC1 | FAAH |  |  |  | IC50 | 147 nM
Cc1cc(OCc2nnc(SC3CCCC3)n2-c2cccnc2)ccc1-c1ccc(S(C)(=O)=O)cc1 | SR |  |  |  | GI50 | 34 nM
CC[C@H](C)[C@H](NC(=O)c1ccc2c(c1)C(=O)OC21c2ccc(N(C)C)cc2Oc2cc(N(C)C)ccc21)C(=O)N[C@@H](CCSC)C(=O)N[C@@H](CC(C)C)C(=O)N[C@@H](Cc1c[nH]c2ccccc12)C(=O)N[C@@H](CCC(N)=O)C(=O)N[C@@H](CCCCN)C(=O)N[C@@H](CCCCN)C(=O)N1CCC[C@H]1C(=O)N[C@@H](CCCNC(=N)N)C(=O)N[C@@H](Cc1ccc(OP(=O)(O)O)cc1)C(=O)N[C@@H](CCC(=O)O)C(=O)N[C@H](C(=O)N[C@@H](CCCNC(=N)N)C(=O)N[C@@H](Cc1c[nH]c2ccccc12)C(=O)N[C@@H](CCCCN)C(=O)N[C@H](C(=O)N[C@H](C(=O)N[C@@H](CC(=O)O)C(=O)O)[C@@H](C)CC)C(C)C)[C@@H](C)CC | CBL SH2 domain |  |  | human protein | Kd | 1980 nM
Cc1ccc(CN2CCC(C(=O)Nc3ccc(-c4cnc5ccccc5c4)cc3)CC2)cc1 | EPHX2 |  |  |  | IC50 | 79.4 nM

For quick reference, copied from above:
SMILES | tested on | test | system | setting | endpoint | value
O=c1[nH]cnc2c(CN3C[C@H](CO)[C@@H](O)C3)c[nH]c12 | Purine nucleoside phosphorylase (Bacteroides fragilis, UniProt Q5LAA3) |  |  |  | Ki | 2.3 ± 0.02 nM
